Measurements gathered from unrelated publications.
Lines come from different studies, so protocols differ.

Structure (SMILES) | host | sample | route | dose | setting | Cmax
CC(C)c1cc(C(=O)NCCN)c2cnn(C(C)C)c2n1 | female BALB/c mouse | plasma | intraperitoneal | 50 mg/kg | – | 2840 ng/mL
C1CCc2c(c(N3CCOCC3)nc3sc4c(N5CCNCC5)nnnc4c23)C1 | male Swiss mouse | plasma | intravenous | 3 mg/kg | – | 241 ng/mL
CNC(=O)c1ccc(-c2cnn3ccc(C(=O)N(C[C@H]4CCC(=O)O4)c4ccc(OC(F)(F)F)cc4)cc23)cc1 | female C57BL/6 mouse | plasma | oral | 10 mg/kg | – | 31.7 nM
O=C(O[C@@H]1Cc2c(O)cc(O)cc2O[C@@H]1c1cc(O)c(O)c(O)c1)c1cc(O)c(O)c(O)c1 | mouse | plasma | oral | 50 mg/kg | single dose | 76.3 nM
CCCS(=O)(=O)Nc1c(F)ccc(C(=O)c2n[nH]c3ncc(-c4ccncc4)cc23)c1F | male C57BL/6 mouse | plasma | oral | 30 mg/kg | – | 53500 nM
COC(=O)c1cc(Cl)ccc1N(C)C(=O)c1ccn2ncc(-c3ccc(C(N)=O)cc3)c2c1 | female C57BL/6 mouse | plasma | oral | 10 mg/kg | – | 32.7 nM
O=C(O)CCN1C(=O)/C(=C2/C(=O)Nc3ccc(Cl)cc32)SC1=S | mouse | plasma | intraperitoneal | 25 mg/kg | – | 2640 ng/mL
COc1ccc2c(c1OCCCS(=O)(=O)O)C(=O)O[C@@H]2[C@H]1c2c(c(Br)c3c(c2OC)OCO3)CCN1C | male CD-1 mouse | plasma | oral | 50 mg/kg | – | 8.5 ng/mL
COc1cc(Nc2ncc3c(n2)-c2ccc(Cl)cc2C(c2c(F)cccc2OC)=NC3)ccc1C(=O)O | SCID mouse | plasma | oral | 20.8 mg/kg | single dose | 42500 nM
Nc1ccn([C@@H]2O[C@H](CO)[C@@H](O)C2(F)F)c(=O)n1 | male BALB/c mouse | plasma | intravenous | 38 µmol/kg | – | 183000 nM
CC(C)n1ncc2c(C(=O)NCC3(C)CNC3)cc(C3CC3)nc21 | female BALB/c mouse | plasma | intraperitoneal | 50 mg/kg | – | 2300 ng/mL
CCOC(=O)CN(C(=O)c1ccn2ncc(-c3ccc(C(=O)NC)cc3)c2c1)c1ccc(Cl)cc1 | female C57BL/6 mouse | plasma | oral | 10 mg/kg | – | 293 nM
COc1ccc(CC[C@@H](NC(=O)[C@H](CCCc2ccccc2)NC(=O)CN2CCOCC2)C(=O)N[C@H](Cc2ccc(C)cc2)C(=O)NO)cc1 | BALB/c mouse | plasma | intraperitoneal | 30 mg/kg | – | ~400 ng/mL
Cc1ncsc1-c1ccc(CNC(=O)[C@@H]2C[C@@H](O)CN2C(=O)[C@@H](NC(=O)CCCCCCCCCCNC(=O)O[C@H]2C[C@@H](C)C=C3C=C[C@H](C)[C@H](CC[C@@H]4C[C@@H](O)CC(=O)O4)[C@H]32)C(C)(C)C)cc1 | C57BL/6 mouse | plasma | oral | 60 mg/kg | single dose | 470 nM
COc1cccc(CN)c1O | male C57BL/6 mouse | spleen | intraperitoneal | 200 mg/kg | single dose | 936000 ng/g

A few entries again:
Structure (SMILES) | host | sample | route | dose | setting | Cmax
CC(C)n1ncc2c(C(=O)NCC3(C)CNC3)cc(C3CC3)nc21 | female BALB/c mouse | plasma | intraperitoneal | 50 mg/kg | – | 2300 ng/mL
